{"data": "Measured values of several laboratories", "rep main protease": "Replicase polyprotein 1ab, main protease (rep, Severe acute respiratory syndrome coronavirus 2, UniProt P0DTD1)", "note": "Values joined by “and” are separate records of one study, mostly repeats; a detail may differ. ± marks the error that the study gave."}
{"SMILES": "CC(C)(C)[C@H](NC(=O)C(F)(F)F)C(=O)N1C[C@H]2[C@@H]([C@H]1C(=O)N[C@H](C#N)C[C@@H]1CCNC1=O)C2(C)C", "target or system": "SARS-CoV-2", "test": "viral replication", "test system": "Delta strain", "setting": "72 h", "measurement": "EC90", "result": "0.0468 ± 0.0102 µM"}
{"SMILES": "CC[C@H](NC(=O)[C@H](CS(=O)(=O)CC1CC1)N[C@@H](c1ccc(F)cc1)C(F)(F)F)C(=O)C(=O)NC1CC1", "target or system": "SARS-CoV-2", "test": "viral replication, inhibitor", "test system": "Vero E6, USA-WA1/2020", "setting": "24 h", "measurement": "EC90", "result": "1.04 µM"}
{"SMILES": "CC(C)(C)[C@H](NC(=O)C(F)(F)F)C(=O)N1C[C@H]2[C@@H]([C@H]1C(=O)N[C@H](C#N)C[C@@H]1CCNC1=O)C2(C)C", "target or system": "SARS-CoV-2", "test": "viral replication, qRT-PCR of viral RNA", "test system": "Vero, Washington", "measurement": "EC90", "result": "5.6 ± 1.1 µM"}
{"SMILES": "CC[C@H](C)[C@H](NC(=O)[C@H](CC(C)C)NC(=O)[C@H](Cc1c[nH]c2ccccc12)NC(=O)[C@H](CCC(N)=O)NC(=O)[C@@H](NC(=O)[C@H](Cc1ccccc1)NC(=O)[C@H](C)NC(=O)[C@H](CCCCNC(=O)COCCOCCNC(=O)COCCOCCNC(=O)CC[C@H](NC(=O)CCCCCCCCCCCCCCCCCCC(=O)O)C(=O)O)NC(=O)[C@H](CCC(N)=O)NC(=O)[C@H](C)NC(=O)[C@@H](NC(=O)[C@H](CCCCN)NC(=O)[C@H](CC(=O)O)NC(=O)[C@H](CC(C)C)NC(=O)C(C)(C)NC(=O)[C@@H](NC(=O)[C@H](CO)NC(=O)[C@H](Cc1ccc(O)cc1)NC(=O)[C@H](CC(=O)O)NC(=O)[C@H](CO)NC(=O)[C@@H](NC(=O)[C@H](Cc1ccccc1)NC(=O)[C@@H](NC(=O)CNC(=O)[C@H](CCC(=O)O)NC(=O)C(C)(C)NC(=O)[C@@H](N)Cc1ccc(O)cc1)[C@@H](C)O)[C@@H](C)O)[C@@H](C)CC)[C@@H](C)CC)C(C)C)C(=O)N[C@@H](C)C(=O)NCC(=O)NCC(=O)N1CCC[C@H]1C(=O)N[C@@H](CO)C(=O)N[C@@H](CO)C(=O)NCC(=O)N[C@@H](C)C(=O)N1CCC[C@H]1C(=O)N1CCC[C@H]1C(=O)N1CCC[C@H]1C(=O)N[C@@H](CO)C(N)=O", "test system": "patients with type 2 diabetes, serum", "setting": "5 mg, day 29, proof of concept", "measurement": "serum ALT", "result": "24.5 ± 14.3 U/L"}
{"SMILES": "COc1cc2c(cc1N1C[C@@H](C)N[C@@H](C)C1)N(C(=O)c1ccc(-c3ccc(-c4noc(C)n4)cc3C)cc1)CC2", "target or system": "SARS-CoV-2", "test": "viral replication", "test system": "Huh-7-ACE2, USA-WA1/2020", "measurement": "EC90", "result": "> 2.5 µM"}
{"SMILES": "Cn1cnc(Cn2c(=O)[nH]/c(=N\\c3cc4cn(C)nc4cc3Cl)n(Cc3cc(F)c(F)cc3F)c2=O)n1", "target or system": "SARS-CoV-2", "test": "viral replication", "test system": "Delta strain", "setting": "48 h", "measurement": "EC90", "result": "0.0514 ± 0.0182 µM"}
{"SMILES": "CCC(CC)COC(=O)[C@H](C)N[P@](=O)(OC[C@H]1O[C@@](C#N)(c2ccc3c(N)ncnn23)[C@H](O)[C@@H]1O)Oc1ccccc1", "target or system": "SARS-CoV-2", "test": "viral replication, qRT-PCR of viral RNA", "test system": "Vero, Washington", "measurement": "EC90", "result": "3.7 ± 0.4 µM"}
{"SMILES": "Nc1nc(=O)n([C@@H]2CS[C@H](CO)O2)cc1F", "target or system": "SARS-CoV-2", "test": "viral replication", "test system": "Vero", "setting": "48 h", "measurement": "EC90", "result": "> 20 µM"}
{"SMILES": "C[C@@H]1CS/C(=N\\NC(=O)C(=O)[C@H](NC(=O)C2CCCCCC2)C2CCOCC2)N1C", "target or system": "SARS-CoV-2", "test": "viral replication", "test system": "Huh-7-ACE2, USA-WA1/2020", "measurement": "EC90", "result": "0.813 µM"}
{"SMILES": "N#C[C@@]1(n2ccc(N)nc2=O)O[C@H](CO)[C@@H](O)[C@H]1O", "target or system": "SARS-CoV-2", "test": "viral replication, cell-based", "test system": "Washington", "measurement": "EC90", "result": "4 ± 6.5 µM"}
{"SMILES": "Nc1ncnc2c([C@@H]3N[C@H](CO)[C@@H](O)[C@H]3O)c[nH]c12", "target or system": "Chikungunya virus", "test": "viral replication", "test system": "HeLa, AF 15561", "setting": "100 µM", "measurement": "inhibition", "result": "26.3%"}
{"SMILES": "Fc1ccc(-c2ccc(CN3CCN(c4cccc5ccoc45)CC3)[nH]2)cc1", "target or system": "SARS-CoV-2", "test": "viral replication", "test system": "293T-ACE2, USA-WA1/2020", "measurement": "EC90", "result": "0.406 µM"}
{"SMILES": "CCC(CC)COC(=O)[C@H](C)N[P@](=O)(OC[C@H]1O[C@@](C#N)(c2ccc3c(N)ncnn23)[C@H](O)[C@@H]1O)Oc1ccccc1", "target or system": "SARS-CoV-2", "test": "viral replication", "test system": "VeroE6/TMPRSS2", "measurement": "EC90", "result": "3.3 µM"}
{"SMILES": "O=c1nc[nH]c2c1ncn2[C@H]1CC[C@@H](CO)O1", "target or system": "SARS-CoV-2", "test": "infectious virus yield", "test system": "Vero C1008, VOC-202012/01", "setting": "48 h, 90% decrease endpoint", "measurement": "EC90", "result": "17.8 ± 0.69 µM"}
{"SMILES": "Cc1ccc(C#Cc2ccc(S(=O)(=O)N[C@H](Cc3c[nH]c4ccccc34)C(=O)O)s2)cc1", "target or system": "rep main protease", "test": "viral replication, Gluc reporter", "test system": "SARS-CoV-2", "setting": "20 µM", "measurement": "inhibition", "result": "2.64%"}
{"SMILES": "Cn1cnc(Cn2c(=O)[nH]/c(=N\\c3cc4cn(C)nc4cc3Cl)n(Cc3cc(F)c(F)cc3F)c2=O)n1", "test system": "human, moderate renal impairment, plasma", "setting": "oral, 375 mg single dose", "measurement": "Tmax", "result": "2.5 h"}
{"SMILES": "S=C(Nc1ccccn1)c1ccccn1", "target or system": "rep main protease", "test": "viral replication, mKate2 reporter", "test system": "SARS-CoV-2", "setting": "20 µM", "measurement": "inhibition", "result": "0.451%"}
{"SMILES": "CC#C[C@]1(O)CCC2C3CCC4=CC(=O)CCC4=C3[C@@H](c3ccc4c(c3)OCO4)C[C@@]21C (stereo partly drawn)", "target or system": "SARS-CoV-2", "test": "viral replication", "test system": "USA-WA1/2020", "measurement": "EC90", "result": "6.8 µM and 4.25 µM"}
{"note": "A few entries again:"}
{"SMILES": "Nc1ncnc2c([C@@H]3N[C@H](CO)[C@@H](O)[C@H]3O)c[nH]c12", "target or system": "Chikungunya virus", "test": "viral replication", "test system": "HeLa, AF 15561", "setting": "100 µM", "measurement": "inhibition", "result": "26.3%"}
{"SMILES": "Fc1ccc(-c2ccc(CN3CCN(c4cccc5ccoc45)CC3)[nH]2)cc1", "target or system": "SARS-CoV-2", "test": "viral replication", "test system": "293T-ACE2, USA-WA1/2020", "measurement": "EC90", "result": "0.406 µM"}
